Published values gathered from unrelated publications.
Protocols differ between the studies behind these lines. ± gives the spread as reported.
MC5R: Melanocortin receptor 5 (MC5R, Homo sapiens, UniProt P33032)
UniProt P33032, sequence (whole entry, looked up): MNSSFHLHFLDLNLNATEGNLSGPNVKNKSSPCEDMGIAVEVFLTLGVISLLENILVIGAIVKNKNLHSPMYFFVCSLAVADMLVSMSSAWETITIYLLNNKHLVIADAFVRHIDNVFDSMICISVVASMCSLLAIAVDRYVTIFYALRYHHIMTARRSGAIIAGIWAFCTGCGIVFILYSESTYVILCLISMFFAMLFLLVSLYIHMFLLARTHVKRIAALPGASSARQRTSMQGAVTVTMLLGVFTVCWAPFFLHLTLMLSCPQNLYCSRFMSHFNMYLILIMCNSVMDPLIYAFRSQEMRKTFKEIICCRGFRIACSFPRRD
NPR2: Atrial natriuretic peptide receptor 2 (NPR2, Homo sapiens, UniProt P20594)
UniProt P20594, sequence (whole entry, looked up): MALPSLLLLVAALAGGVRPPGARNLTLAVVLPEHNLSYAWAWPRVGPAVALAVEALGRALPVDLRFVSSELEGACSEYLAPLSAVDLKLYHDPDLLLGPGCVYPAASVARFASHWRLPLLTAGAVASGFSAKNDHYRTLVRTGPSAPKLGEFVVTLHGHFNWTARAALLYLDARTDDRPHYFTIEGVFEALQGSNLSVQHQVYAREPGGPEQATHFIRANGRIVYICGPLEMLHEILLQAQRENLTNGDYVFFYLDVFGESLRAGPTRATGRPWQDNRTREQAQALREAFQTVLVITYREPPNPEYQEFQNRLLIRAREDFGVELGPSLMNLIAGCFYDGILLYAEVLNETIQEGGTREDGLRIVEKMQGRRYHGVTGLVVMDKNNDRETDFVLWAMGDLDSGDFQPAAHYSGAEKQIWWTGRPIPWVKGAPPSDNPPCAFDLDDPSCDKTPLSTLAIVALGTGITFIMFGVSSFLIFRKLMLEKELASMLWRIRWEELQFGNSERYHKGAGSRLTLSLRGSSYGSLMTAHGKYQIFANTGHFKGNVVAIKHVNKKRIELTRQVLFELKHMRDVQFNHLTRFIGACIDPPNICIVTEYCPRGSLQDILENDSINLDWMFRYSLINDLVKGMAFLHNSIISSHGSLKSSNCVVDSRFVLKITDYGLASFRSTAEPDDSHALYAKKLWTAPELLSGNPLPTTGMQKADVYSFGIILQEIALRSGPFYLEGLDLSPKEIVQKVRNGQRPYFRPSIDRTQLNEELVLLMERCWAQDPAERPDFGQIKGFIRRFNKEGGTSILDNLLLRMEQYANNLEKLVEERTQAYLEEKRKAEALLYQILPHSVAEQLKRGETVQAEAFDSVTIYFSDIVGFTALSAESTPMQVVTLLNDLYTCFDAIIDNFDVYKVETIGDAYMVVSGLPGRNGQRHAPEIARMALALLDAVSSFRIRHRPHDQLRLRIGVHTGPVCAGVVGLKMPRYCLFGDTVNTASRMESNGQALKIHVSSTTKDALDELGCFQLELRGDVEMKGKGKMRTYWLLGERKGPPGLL
Methoprene-tolerant protein with Taiman: Methoprene-tolerant protein, with Taiman (Drosophila melanogaster, UniProt O44118)
S1PR2: Sphingosine 1-phosphate receptor 2 (S1PR2, Homo sapiens, UniProt O95136)
UniProt O95136, sequence (whole entry, looked up): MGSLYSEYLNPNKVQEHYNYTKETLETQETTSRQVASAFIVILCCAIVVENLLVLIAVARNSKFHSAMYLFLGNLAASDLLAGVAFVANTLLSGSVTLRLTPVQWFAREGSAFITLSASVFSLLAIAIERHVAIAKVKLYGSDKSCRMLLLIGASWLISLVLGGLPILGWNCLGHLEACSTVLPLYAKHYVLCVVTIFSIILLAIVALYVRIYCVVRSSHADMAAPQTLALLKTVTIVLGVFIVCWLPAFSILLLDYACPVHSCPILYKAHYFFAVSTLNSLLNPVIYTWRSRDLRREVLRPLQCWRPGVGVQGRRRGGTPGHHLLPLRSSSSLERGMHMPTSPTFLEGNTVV
PTGFR: Prostaglandin F2-alpha receptor (PTGFR, Homo sapiens, UniProt P43088)
UniProt P43088, sequence (whole entry, looked up): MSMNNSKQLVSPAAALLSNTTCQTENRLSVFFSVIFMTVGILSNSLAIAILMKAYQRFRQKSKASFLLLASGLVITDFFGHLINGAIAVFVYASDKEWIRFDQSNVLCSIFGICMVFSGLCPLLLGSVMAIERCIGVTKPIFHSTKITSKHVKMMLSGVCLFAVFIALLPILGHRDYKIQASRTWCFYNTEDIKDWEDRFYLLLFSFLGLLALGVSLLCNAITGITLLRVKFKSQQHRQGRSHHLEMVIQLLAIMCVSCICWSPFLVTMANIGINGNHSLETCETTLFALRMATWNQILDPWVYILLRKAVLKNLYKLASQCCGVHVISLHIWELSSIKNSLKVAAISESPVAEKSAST
UniProt Q7RTX7, sequence (whole entry, looked up): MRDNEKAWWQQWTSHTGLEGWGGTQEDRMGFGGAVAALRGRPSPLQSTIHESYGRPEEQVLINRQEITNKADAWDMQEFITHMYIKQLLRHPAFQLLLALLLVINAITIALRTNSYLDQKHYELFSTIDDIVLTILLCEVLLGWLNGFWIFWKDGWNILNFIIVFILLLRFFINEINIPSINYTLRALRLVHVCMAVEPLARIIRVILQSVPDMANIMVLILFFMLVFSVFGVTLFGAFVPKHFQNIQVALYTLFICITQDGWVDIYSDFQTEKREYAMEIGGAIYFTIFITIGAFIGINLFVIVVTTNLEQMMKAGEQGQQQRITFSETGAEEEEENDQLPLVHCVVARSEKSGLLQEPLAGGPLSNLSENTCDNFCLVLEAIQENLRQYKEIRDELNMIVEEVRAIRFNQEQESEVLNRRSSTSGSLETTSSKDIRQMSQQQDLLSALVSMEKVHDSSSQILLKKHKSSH
UniProt P41587, sequence (whole entry, looked up): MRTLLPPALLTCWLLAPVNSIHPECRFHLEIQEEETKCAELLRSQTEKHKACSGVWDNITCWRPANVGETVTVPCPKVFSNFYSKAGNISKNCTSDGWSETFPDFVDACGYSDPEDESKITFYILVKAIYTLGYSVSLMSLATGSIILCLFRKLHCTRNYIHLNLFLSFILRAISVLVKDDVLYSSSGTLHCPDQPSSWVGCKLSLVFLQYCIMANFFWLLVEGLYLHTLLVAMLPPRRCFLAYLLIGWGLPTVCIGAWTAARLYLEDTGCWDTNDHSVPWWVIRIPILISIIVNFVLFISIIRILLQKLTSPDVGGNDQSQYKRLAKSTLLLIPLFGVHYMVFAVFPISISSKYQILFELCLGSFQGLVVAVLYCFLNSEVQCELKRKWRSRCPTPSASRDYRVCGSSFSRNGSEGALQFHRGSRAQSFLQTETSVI
UniProt O75762, sequence (whole entry, looked up): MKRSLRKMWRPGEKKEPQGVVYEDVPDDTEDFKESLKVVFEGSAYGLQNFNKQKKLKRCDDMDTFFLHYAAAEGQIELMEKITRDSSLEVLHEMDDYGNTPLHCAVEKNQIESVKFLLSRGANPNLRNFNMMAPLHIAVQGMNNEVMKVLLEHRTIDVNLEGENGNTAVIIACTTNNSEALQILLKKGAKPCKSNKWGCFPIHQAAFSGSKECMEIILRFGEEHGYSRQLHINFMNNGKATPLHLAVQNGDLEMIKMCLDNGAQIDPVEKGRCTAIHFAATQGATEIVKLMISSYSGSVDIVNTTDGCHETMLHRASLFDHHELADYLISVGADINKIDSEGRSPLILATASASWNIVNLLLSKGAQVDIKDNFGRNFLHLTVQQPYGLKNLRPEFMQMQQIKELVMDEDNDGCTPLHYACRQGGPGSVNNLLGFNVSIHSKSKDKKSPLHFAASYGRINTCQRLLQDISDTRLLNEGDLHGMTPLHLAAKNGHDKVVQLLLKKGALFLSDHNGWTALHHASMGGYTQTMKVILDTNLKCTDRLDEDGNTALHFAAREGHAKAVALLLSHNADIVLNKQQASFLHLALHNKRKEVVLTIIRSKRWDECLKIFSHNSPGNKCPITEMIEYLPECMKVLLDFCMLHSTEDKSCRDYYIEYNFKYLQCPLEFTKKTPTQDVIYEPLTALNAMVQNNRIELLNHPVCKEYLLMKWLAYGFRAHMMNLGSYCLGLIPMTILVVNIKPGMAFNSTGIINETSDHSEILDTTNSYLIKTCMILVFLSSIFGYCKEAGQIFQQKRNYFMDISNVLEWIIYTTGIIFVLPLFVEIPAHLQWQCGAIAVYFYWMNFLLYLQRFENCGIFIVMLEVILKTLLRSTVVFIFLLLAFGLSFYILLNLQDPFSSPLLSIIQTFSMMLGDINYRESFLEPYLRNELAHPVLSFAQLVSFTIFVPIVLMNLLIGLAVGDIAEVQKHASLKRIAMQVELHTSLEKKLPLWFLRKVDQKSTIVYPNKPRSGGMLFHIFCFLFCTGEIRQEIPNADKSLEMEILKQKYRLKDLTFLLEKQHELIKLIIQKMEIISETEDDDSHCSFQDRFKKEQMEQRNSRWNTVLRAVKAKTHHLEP
UniProt Q96P56, sequence (whole entry, looked up): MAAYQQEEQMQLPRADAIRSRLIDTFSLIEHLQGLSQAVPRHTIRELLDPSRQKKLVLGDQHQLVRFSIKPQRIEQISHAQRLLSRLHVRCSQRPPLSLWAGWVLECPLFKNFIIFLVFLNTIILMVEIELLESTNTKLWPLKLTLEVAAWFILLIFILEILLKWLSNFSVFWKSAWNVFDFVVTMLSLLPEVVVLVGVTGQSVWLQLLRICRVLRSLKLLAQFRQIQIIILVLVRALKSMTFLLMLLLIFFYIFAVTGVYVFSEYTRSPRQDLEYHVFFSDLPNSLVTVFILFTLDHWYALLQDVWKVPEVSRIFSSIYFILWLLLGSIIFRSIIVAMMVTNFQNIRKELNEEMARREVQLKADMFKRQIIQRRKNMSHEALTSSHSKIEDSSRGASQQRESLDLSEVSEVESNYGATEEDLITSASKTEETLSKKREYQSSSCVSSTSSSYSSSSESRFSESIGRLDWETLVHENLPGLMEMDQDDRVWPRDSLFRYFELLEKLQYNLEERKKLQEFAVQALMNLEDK
UniProt P33766, sequence (whole entry, looked up): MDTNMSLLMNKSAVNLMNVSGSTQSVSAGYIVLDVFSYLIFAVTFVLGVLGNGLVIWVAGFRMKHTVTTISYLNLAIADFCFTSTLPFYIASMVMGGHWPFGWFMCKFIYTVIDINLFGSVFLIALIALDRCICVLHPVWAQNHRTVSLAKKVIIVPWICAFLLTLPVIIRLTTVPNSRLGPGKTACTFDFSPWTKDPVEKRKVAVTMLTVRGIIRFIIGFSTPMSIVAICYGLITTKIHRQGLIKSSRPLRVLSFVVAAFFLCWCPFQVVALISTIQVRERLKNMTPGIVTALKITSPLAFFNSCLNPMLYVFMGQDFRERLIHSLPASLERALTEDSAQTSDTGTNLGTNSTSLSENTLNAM

SMILES | target | test | system | setting | EC50 [nM]
NC(CO)CCc1ccccc1Cl (racemic) | D(3) dopamine receptor (DRD3, Homo sapiens, UniProt P35462) | phosphorylation in cells, agonist, western blot | – | – | 859
CSCC[C@H](NC(=O)[C@@H]1CCCN1C(=O)CNC(=O)[C@H](CCCCN)NC(=O)[C@H](Cc1c[nH]cn1)NC(=O)[C@H](CO)NC(=O)[C@H](CC(C)C)NC(=O)[C@H](CCCNC(=N)N)NC(=O)[C@@H]1CCCN1C(=O)[C@H](CCCNC(=N)N)NC(=O)[C@H](CCC(N)=O)NC(=O)[C@H](CCCNC(=N)N)NC(=O)[C@H](CCCNC(=N)N)NC(=O)[C@H](Cc1ccccc1)NC(=O)[C@H](CCCCN)NC(=O)[C@H](CCCNC(=N)N)NC(=O)[C@H](CCCNC(=N)N)NC(=O)CNC(=O)CNC(=O)[C@H](CCC(N)=O)NC(=O)[C@H](Cc1c[nH]c2ccccc12)NC(=O)[C@@H]1CCCN1C(=O)CNC(=O)[C@@H]1CCCN1C(=O)CNC(=O)[C@H](CC(N)=O)NC(=O)[C@H](CCCNC(=N)N)NC(=O)[C@H](CO)NC(=O)CNC(=O)[C@H](CCCNC(=N)N)NC(=O)[C@@H]1CCCN1C(=O)[C@H](CCC(N)=O)NC(=O)[C@@H](NC(=O)[C@@H](N)CC(C)C)C(C)C)C(=O)N1CCC[C@H]1C(=O)N[C@@H](Cc1ccccc1)C(=O)O | Apelin receptor (APLNR, Homo sapiens, UniProt P35414, S339A) | β-arrestin-2 recruitment, agonist, BRET | HEK293 | 15 min | 8.74 ± 1.02
CC(C)C[C@H](NC(=O)[C@@H](N)CCCCN)C(=O)N[C@H](C(=O)N[C@@H](Cc1ccccc1)C(=O)N[C@@H](Cc1ccccc1)C(=O)N[C@@H](C)C(=O)N[C@@H](CCC(=O)O)C(=O)O)C(C)C | fMet-Leu-Phe receptor (Mus musculus, UniProt P33766) | calcium mobilisation, agonist, FLIPR Fluo-4 | HEK-293T with Gα16 | – | 4100
N=C(N)NCCC[C@H](NC(=O)[C@@H]1CSSC[C@H](NC(=O)[C@H](Cc2ccc3ccccc3c2)NC(=O)[C@H](CCCNC(=N)N)NC(=O)[C@@H](N)CCCNC(=N)N)C(=O)N[C@@H](Cc2ccc(O)cc2)C(=O)N[C@@H](CCCNC(N)=O)C(=O)N[C@@H](CCCCN)C(=O)N[C@H](CCCNC(N)=O)C(=O)N2CCC[C@H]2C(=O)N[C@@H](Cc2ccc(O)cc2)C(=O)N[C@@H](CCCNC(=N)N)C(=O)N[C@@H](CCCNC(N)=O)C(=O)N1)C(N)=O | Atypical chemokine receptor 3 (ACKR3, Homo sapiens, UniProt P25106) | β-arrestin recruitment, agonist | – | – | 87.5
N=C(N)NCCC[C@H](NC(=O)[C@H](CC(=O)O)NC(=O)[C@@H]1CSCC(=O)NCC(=O)N[C@@H](Cc2c[nH]cn2)C(=O)N[C@H](Cc2ccccc2)C(=O)N[C@@H](CCCNC(=N)N)C(=O)N[C@@H](Cc2c[nH]c3ccccc23)C(=O)N1)C(=O)N[C@@H](Cc1ccccc1)C(=O)NCC(N)=O | MC5R | cAMP, agonist | – | – | 86
N#CCCN1CCN(C(=S)c2ccc(-c3ccccc3Cl)o2)CC1 | NPR2 | cGMP production, positive allosteric modulator, cGMP HTRF | HEK293 expressing human GC-B | together with: CNP at EC30 | 2330
N=C(N)NCCC[C@H](NC(=O)[C@H](CC(=O)O)NC(=O)[C@@H]1CSCCCC(=O)NCC(=O)N[C@@H](Cc2c[nH]cn2)C(=O)N[C@H](Cc2ccccc2)C(=O)N[C@@H](CCCNC(=N)N)C(=O)N[C@H](Cc2c[nH]c3ccccc23)C(=O)N1)C(=O)N[C@@H](Cc1ccccc1)C(=O)NCC(N)=O | MC5R | cAMP, agonist | – | – | 1300
Cc1cc(C)n(-c2ccc(C[S+]([O-])CC3CCCCO3)cc2)n1 (centres unmarked) | Methoprene-tolerant protein with Taiman | reporter gene, agonist | HEK293T expressing Drosophila Met/Tai | 24 h | > 100000
CC[C@H](C)[C@@H]1NC(=O)[C@H](CCCNC(=N)N)NC(=O)[C@H](CC(=O)O)NC(=O)[C@H](CC(C)C)NC(=O)[C@H](CCCCN)NC(=O)[C@H](CC(C)C)NC(=O)CNC(=O)[C@H](Cc2ccccc2)NC(=O)[C@@H](NC(=O)CNC(=O)[C@H](CCCCN)NC(=O)[C@H](CO)NC(=O)[C@H](CC(C)C)NC(=O)CN)CSSC[C@@H](C(=O)O)NC(=O)CNC(=O)[C@H](CC(C)C)NC(=O)CNC(=O)[C@H](CO)NC(=O)[C@H](CCSC)NC(=O)[C@H](CO)NC(=O)CNC1=O | NPR2 | cGMP production, agonist | HEK293 expressing GC-B | – | 3
CC(Oc1ccccc1)C(=O)NCC1CCN(c2ccccn2)CC1 (centres unmarked) | Methoprene-tolerant protein with Taiman | reporter gene, agonist | HEK293T expressing Drosophila Met/Tai | 24 h | > 100000
Cc1cc(C(=O)Cn2cc(C(F)(F)F)ccc2=O)c(C)n1-c1ccccc1 | S1PR2 | reporter gene, agonist | – | – | > 10000
CC[C@H](C)[C@H](NC(=O)CNC(=O)[C@H](CC(=O)O)NC(=O)[C@H](CO)NC(=O)C=Cc1c[nH]cn1)C(=O)N[C@@H](Cc1ccccc1)C(=O)N[C@H](C(=O)N[C@@H](CC(=O)O)C(=O)N[C@@H](CO)C(=O)N[C@@H](Cc1ccc(O)cc1)C(=O)N[C@@H](CO)C(=O)N[C@@H](CCCNC(=N)N)C(=O)N[C@@H](Cc1ccc(O)cc1)C(=O)N[C@@H](CCCNC(=N)N)C(=O)N[C@@H](CCCCN)C(=O)N[C@@H](CCC(N)=O)C(=O)N[C@@H](CCSC)C(=O)N[C@@H](C)C(=O)N[C@H](C(=O)N[C@@H](CCCCN)C(=O)N[C@@H](CCCCN)C(=O)N[C@@H](C)C(=O)N[C@@H](CC(C)C)C(=O)N[C@@H](C)C(=O)N[C@@H](C)C(=O)N[C@H](C(=O)N[C@@H](CC(C)C)C(=O)NCC(=O)N[C@@H](CCCCN)C(=O)N[C@@H](CCCNC(=N)N)C(=O)N[C@@H](Cc1ccc(O)cc1)C(=O)N[C@@H](CCCCN)C(=O)N[C@@H](CCC(N)=O)C(=O)N[C@@H](CCCNC(=N)N)C(=O)N[C@H](C(=O)N[C@@H](CCCCN)C(=O)N[C@@H](CC(N)=O)C(=O)N[C@@H](CCCCN)C(N)=O)C(C)C)C(C)C)C(C)C)[C@@H](C)O | Vasoactive intestinal polypeptide receptor 2 (VIPR2, Homo sapiens, UniProt P41587) | cAMP production, agonist | PANC-1 transfected with receptor | – | > 1000
CCOC(=O)CCN1CCN(C(=S)c2ccc(-c3cc(Cl)ccc3Cl)o2)CC1 | NPR2 | cGMP production, positive allosteric modulator, cGMP HTRF | HEK293 expressing human GC-B | together with: CNP at EC30 | 2530
CCc1nc(-c2ccc(-c3ccc(CCC(N)(CO)CO)cc3)cc2)co1 | S1PR2 | β-arrestin recruitment, agonist | – | – | > 10000
N#CCCN1CCN(C(=S)c2ccc(-c3cccc(C(F)(F)F)c3)o2)CC1 | NPR2 | cGMP production, positive allosteric modulator, cGMP HTRF | HEK293 expressing human GC-B | together with: CNP at EC30 | 1530
O=C(O)/C=C/c1cccc(NC(=O)c2cc(-c3ccc(F)cc3)ccc2F)c1 | PTGFR | calcium signal, agonist, fluorescence | – | – | > 10000
C/C(=C\CC[C@@]1(C)[C@@H]2C=C(CO)CC[C@@H]21)CO (racemic) | CatSper channel complex (Homo sapiens, UniProt Q7RTX7+Q86XQ3+Q8NEC5+Q96P56) | – | human cells | – | 2900 ± 700
N#CCCN1CCN(C(=S)c2ccc(-c3ccc(Cl)cc3)o2)CC1 | NPR2 | cGMP production, positive allosteric modulator, cGMP HTRF | HEK293 expressing human GC-B | together with: CNP at EC30 | 420
CC(C)C[C@H](NC(=O)[C@H](Cc1ccccc1)NC(=O)c1cnccn1)B(O)O | Proteasome subunits (Trypanosoma cruzi, UniProt Q4CU77+Q4D8U7) | trypsin-like activity, inhibitor | – | wild-type proteasome, PSMB4 wild type | 1700
CC(C)CN(CC(C)C)C(=O)/C=C/C=C/c1ccc2c(c1)OCO2 | Gamma-aminobutyric acid receptor subunit alpha-1/beta-3 (Gabra1/Gabrb3, Rattus norvegicus, UniProt P62813+P63079) | GABA current potentiation, positive modulator, two-electrode voltage clamp | Xenopus oocytes expressing α1β3 | together with: GABA EC3-7 | 12300 ± 4500
Cc1cc(C(=O)CN2C(=O)CCC2=O)c(C)n1Cc1ccccc1 | S1PR2 | reporter gene, agonist | – | – | 1000
S=C(c1ccc(-c2cc(Cl)ccc2Cl)o1)N1CCN(Cc2ccccc2)CC1 | NPR2 | cGMP production, positive allosteric modulator, cGMP HTRF | HEK293 expressing human GC-B | together with: CNP at EC30 | > 10000
O=C(O)/C=C/c1cccc(NC(=O)c2cc(-c3cccc(F)c3)ccc2F)c1 | PTGFR | calcium signal, agonist, fluorescence | – | – | > 10000
CSCC[C@H](NC(=O)[C@H](Cc1c[nH]c2ccccc12)NC(=O)CNC(=O)[C@H](Cc1ccc(O)cc1)NC(=O)[C@H](C)NC(=O)[C@H](CCC(=O)O)NC(=O)[C@H](CCC(=O)O)NC(=O)[C@H](CCC(=O)O)NC(=O)[C@H](CCC(=O)O)NC(=O)[C@H](CCC(=O)O)NC(=O)[C@@H](CCC(=O)O)NC(=O)CNC(=O)C(CNCCN)CNCCN)C(=O)N[C@@H](CC(=O)O)C(=O)N[C@@H](Cc1ccccc1)C(N)=O | Gastrin/cholecystokinin type B receptor (CCKBR, Homo sapiens, UniProt P32239) | calcium signal, agonist | – | – | 0.079
N#CCCN1CCN(C(=S)c2ccc(-c3cc(Cl)ccc3Cl)o2)CC1 | NPR2 | cGMP production, activator | HEK293 expressing GC-B | together with: CNP at EC20 | 740
COC(=O)c1ccc(N2CCN(C(=O)C3CC3)C(C)C2)cc1 (centres unmarked) | Methoprene-tolerant protein with Taiman | reporter gene, agonist | HEK293T expressing Drosophila Met/Tai | 24 h | 871
CCCCC/C=C\C/C=C\CC1OC1C/C=C\CCCC(=O)O (centres unmarked) | Transient receptor potential cation channel subfamily A member 1 (TRPA1, Homo sapiens, UniProt O75762) | calcium signal, agonist, fluorescence | – | – | 32700
N#CCCN1CCN(C(=S)c2ccc(-c3ccccc3C(F)(F)F)o2)CC1 | NPR2 | cGMP production, positive allosteric modulator, cGMP HTRF | HEK293 expressing human GC-B | together with: CNP at EC30 | > 10000
COc1ccc(C2CC2/C(C)=N/OC(=O)c2ccc(F)cc2)cc1 (centres unmarked) | Methoprene-tolerant protein with Taiman | reporter gene, agonist | HEK293T expressing Drosophila Met/Tai | 24 h | > 100000

Repeated from above:
SMILES | target | test | system | setting | EC50 [nM]
CCOC(=O)CCN1CCN(C(=S)c2ccc(-c3cc(Cl)ccc3Cl)o2)CC1 | NPR2 | cGMP production, positive allosteric modulator, cGMP HTRF | HEK293 expressing human GC-B | together with: CNP at EC30 | 2530
CCc1nc(-c2ccc(-c3ccc(CCC(N)(CO)CO)cc3)cc2)co1 | S1PR2 | β-arrestin recruitment, agonist | – | – | > 10000
N#CCCN1CCN(C(=S)c2ccc(-c3cccc(C(F)(F)F)c3)o2)CC1 | NPR2 | cGMP production, positive allosteric modulator, cGMP HTRF | HEK293 expressing human GC-B | together with: CNP at EC30 | 1530
O=C(O)/C=C/c1cccc(NC(=O)c2cc(-c3ccc(F)cc3)ccc2F)c1 | PTGFR | calcium signal, agonist, fluorescence | – | – | > 10000
